Assay results of several laboratories.
Every numbered part comes from another study and shows a few of its results, in no order.

Set 1 — method: RNAcompete; molecule type: RNA; matrix: in vitro; concentration: 20 nM; setting: 7-mer, probes averaged, single round; reference: mean of 7-mers; reading: higher = stronger binding; measurement: 7-mer Z-score
Target: PABPC1L2, full length, GST fusion (mouse, UniProt A0ABA7IW68)
Construct (chain): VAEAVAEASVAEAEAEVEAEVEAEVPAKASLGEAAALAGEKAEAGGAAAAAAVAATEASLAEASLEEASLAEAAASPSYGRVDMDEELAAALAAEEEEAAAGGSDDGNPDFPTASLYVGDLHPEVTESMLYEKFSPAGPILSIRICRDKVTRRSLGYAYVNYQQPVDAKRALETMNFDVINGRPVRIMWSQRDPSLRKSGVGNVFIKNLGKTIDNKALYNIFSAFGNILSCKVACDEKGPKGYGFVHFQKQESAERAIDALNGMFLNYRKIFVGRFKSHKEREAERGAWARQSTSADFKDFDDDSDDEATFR
CCGGUGU: -0.226
UGCGCCA: -0.122
CCCGUUA: -0.362
AGGGGGG: 0.441
AAUCAGU: 0.0515

Set 2 — method: protein binding microarray; molecule type: double-stranded DNA, one strand shown; matrix: in vitro; concentration: not given; reference: not given; reading: higher = stronger binding; measurement: E-score
Target: Histone acetyltransferase KAT6A, winged helix 2, GST fusion (KAT6A, Homo sapiens, UniProt Q92794, residues 85-181)
Setting: 8-mer, flanks averaged, mean of 2 arrays, mostly near background
Construct (chain): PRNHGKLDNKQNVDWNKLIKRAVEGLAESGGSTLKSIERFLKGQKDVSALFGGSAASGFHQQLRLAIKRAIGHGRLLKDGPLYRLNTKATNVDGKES
AAAACAAG: 0.0233
GGCGCTGA: -0.026
ACAGGCGT: -0.128
CGAGGCGC: 0.233
CTGGAGTC: -0.043
CCCGTTCG: 0.124

Set 3 — method: protein-binding microarray; molecule type: double-stranded DNA, one strand shown; matrix: in vitro; concentration: 2200 nM top; setting: 60-bp whole probe; together with: salmon DNA 0.4 mg/ml; reference: random background probes; reading: higher = stronger binding; measurement: fitted relative affinity; all sequences stand within: GCCTAGCAC … GTCTTGATTCGCTTGACGCTGCTG
Target: Interferon regulatory factor 7, full length, phosphomimetic (IRF7, Homo sapiens, UniProt Q92985, residues 1-503, S471D/S472D/S475D/S476D/S477D/S483D/S484D/S487D)
Sequence of UniProt Q92985 (whole entry, unmodified, looked up): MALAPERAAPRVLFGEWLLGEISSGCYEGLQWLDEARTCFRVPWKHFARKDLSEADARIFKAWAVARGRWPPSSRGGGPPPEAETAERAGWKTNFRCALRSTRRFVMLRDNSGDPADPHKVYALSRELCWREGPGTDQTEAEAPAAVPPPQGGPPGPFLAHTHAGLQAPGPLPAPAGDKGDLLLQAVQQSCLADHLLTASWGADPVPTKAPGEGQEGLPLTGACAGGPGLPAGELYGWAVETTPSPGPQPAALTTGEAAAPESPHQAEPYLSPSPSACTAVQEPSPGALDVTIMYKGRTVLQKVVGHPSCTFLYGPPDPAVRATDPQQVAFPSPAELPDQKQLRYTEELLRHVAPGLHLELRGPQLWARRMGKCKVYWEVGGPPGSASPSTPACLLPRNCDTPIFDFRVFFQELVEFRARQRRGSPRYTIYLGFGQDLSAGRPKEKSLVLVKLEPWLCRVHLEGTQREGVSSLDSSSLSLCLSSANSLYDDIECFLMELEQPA
TTAGAATTGGGGTTTCGATTAGTGCTA: 2.58 z-score
TAAGGTTTCGGACTGGGTTAGTGCTAG: 2.96 z-score
GACGGTTTCGGTATCTGGACGTGCTAG: 7.67 z-score
GACGGTTTCCTACTGCTGAGGTGCTAG: 1.74 z-score
GACGATCTTAGTATCGAGACGTGCTAG: 0.103 z-score

Further values, each from its own experiment
PhoQ, residues 284 288 289 292 302 303 GNNTDL
fold induction (PhoP, residues 12 14 15 18 19 AGCRL (Escherichia coli, UniProt P23836); Sort-seq, refers to: YFP reporter; E. coli; PhoQ-PhoP variant library, together with: 10 µM Mg2+; reference: high Mg2+ state, higher = stronger signaling): 2.79

Excerpt of the above (set 2):
ACAGGCGT: -0.128
CGAGGCGC: 0.233
